Literature values that unrelated publications cite.
Lines come from different studies, so protocols differ. “And” joins repeats or separate records; there may be more than shown. Numbers after ± are the reported error.

COc1ccc(S(=O)(=O)Nc2ccc(NS(=O)(=O)c3ccc(OC)cc3)c3ccccc23)cc1  activity (Nrf2; ARE luciferase reporter, activator; concentration not given): active
Nc1c2ncn3c2nc[n+]1[C@@H]1O[C@H](COP(=O)(O)OP(=O)([O-])OC[C@H]2O[C@@H]3C[C@@H]2O)[C@@H](O)[C@H]1O  activity (cADPR receptor; permeabilised Jurkat T cells; concentration not given): inactive
C[C@H](NC(=O)[C@@H]1CCCN1C(=O)[C@@H]1CCCN1C(=O)[C@H](C)NC(=O)[C@@H](NC(=O)[C@H](CO)NC(=O)CNC(=O)[C@@H]1CCCN1C(=O)[C@H](C)NC(=O)[C@@H]1CCCN1C(=O)[C@@H](N)CCCNC(=N)N)[C@@H](C)O)C(=O)N[C@@H](Cc1c[nH]cn1)C(=O)NCC(=O)O  kon (14 A monoclonal antibody; SPR): 12200 M⁻¹ s⁻¹
CCc1cc(O)cc2c(/C=N/NC(=N)NCCc3ccc(Cl)cc3)c[nH]c12  EC50 (RXFP4; agonist): 2 nM
COc1cc(F)c(C(C)C)cc1C1=C(CN2C(=O)O[C@H](c3cc(C(F)(F)F)cc(C(F)(F)F)c3)[C@@H]2C)CC(C)(C)CC1  duration of CETP inhibition (CETP; dyslipidemic hamster; 0.1 to 30 mg/kg, single dose): 48 h
CC(=O)N[C@H]1[C@@H](O)[C@H](O)[C@@H](CO)O[C@H]1O  Vmax (Staphylococcus aureus NanK): 20.5 ± 0.18 µM min^–1
NC(=O)c1ccc[n+](C2OC(COP(=O)([O-])OP(=O)(O)OCC3OC(n4cnc5c(N)ncnc54)C(O)C3O)C(O)C2O)c1 (stereo not shown)  dissociation rate constant (mitochondrial complex I flavin site): > 5000 s⁻¹
CC1(C)CC(=O)C2=C(C1)OC(N)=C(C#N)C2c1ccccc1 (stereo not shown)  DNA binding constant (calf thymus DNA): 500000 M⁻¹
C=CCC(=N)NCCC[C@H](N)C(=O)O  inhibition (rat nNOS; 100 µM): 94%
CCCCCCCCCCCCCC(=O)N[C@@H](CO)C(=O)N[C@H](C(=O)N[C@@H](Cc1ccc(O)cc1)C(=O)N[C@@H](CCCNC(=N)N)C(=O)N[C@@H](CCCNC(=N)N)C(=O)NCC(=O)N[C@@H](C)C(=O)N[C@@H](CCCNC(=N)N)C(=O)N[C@@H](CCCNC(=N)N)C(=O)N[C@@H](Cc1c[nH]c2ccccc12)C(=O)N[C@@H](CCCNC(=N)N)C(=O)N[C@@H](CCCCN)C(=O)N[C@@H](CC(C)C)C(=O)O)[C@@H](C)CC  lowest dose blocking PKMζ potentiation (PKMζ; AMPAR responses; CA1 neurons, hippocampal slices): ~5 µM
Nc1ncnc2c1ncn2C1OC(COP(=O)(O)OP(=O)(O)OCC2OC(O)C(O)C2O)C(O)C1O (stereo not shown)  EC50 (TRPM2 (human); channel activation, agonist, inside-out patch clamp; added: saturating cytosolic Ca2+): 1400 nM
CNC(=O)c1ccccc1Oc1nc(Nc2cc(OC)c(OC)c(OC)c2)ncc1Br  inhibition (AMPK; 0.25 µM): ~80%
COc1ccc(C(OCCN2CCCC(C(=O)O)C2)(c2ccc(OC)cc2)c2ccc(OC)cc2)cc1 (stereo not shown)  selectivity ratio (GABA transporter GAT3 and GAT1; reference: GAT1 over GAT3 IC50): 15 to 40 fold
Nc1c(SC[C@H](O)[C@H](O)[C@H](O)CO)[nH]c(=O)[nH]c1=O  kcat (Bacillus subtilis lumazine synthase; enzyme kinetics; recombinant β60 capsid; pH 7.0, added: substrate 2 fixed, 1 varied): 0.0183 ± 0.00167 s⁻¹
c1ccc(CCCNc2ncnc3cc(OCC4CCN(CCNc5cccc6ccccc56)CC4)ccc23)cc1  inhibition (human DNMT3A catalytic domain; enzyme activity; 32 µM): 0%
COCCNc1oc(-c2ccc(N(C)Cc3ccc(Cl)cc3)cc2)nc1C#N  EC50 (REV-ERB; reporter gene, luciferase reporter): 2500 nM
O=C(Nc1ccccn1)[C@]12C[C@H]1/C(=N\O)c1ccccc1O2  activity (mGlu2, 3, 5, 6, 7, 8 receptors; receptor activity): > 30 µM
Nc1ncnc(NCC2CCN(C(=O)C(O)CO)CC2)c1-c1ccc(Oc2ccccc2)cc1 (stereo not shown)  activity (BTK; concentration not given): inactive
CC(C)[C@H](NC(=O)[C@@H]1CCCN1C(=O)[C@H](C)NC(=O)[C@H](CO)NC(=O)[C@H](C)NC(=O)[C@H](CC(N)=O)NC(=O)[C@H](CCC(=O)O)NC(=O)[C@@H](NC(=O)[C@H](CC(=O)O)NC(=O)[C@H](CCCCN)NC(=O)[C@H](C)NC(=O)[C@H](CCC(N)=O)NC(=O)[C@H](Cc1ccccc1)NC(=O)[C@H](C)NC(=O)[C@H](Cc1c[nH]c2ccccc12)NC(=O)[C@@H](NC(=O)[C@@H]1CCCN1C(=O)[C@@H](NC(=O)CN)C(C)C)C(C)C)C(C)C)C(=O)O  turnover number (PCY1 peptide cyclase, Saponaria vaccaria; macrocyclization, substrate): ~1 h⁻¹
CSc1nn(CC(=O)Nc2ccc(F)c(F)c2)c(N)c1-c1nc(-c2ccc3c(c2)OCO3)no1  activity (FANCM/RMI; PubChem screen; concentration not given): inactive
O=c1[nH]c(NC[C@H](O)[C@H](O)[C@H](O)CO)c([N+](=O)[O-])c(=O)[nH]1  kcat (Bacillus subtilis lumazine synthase; enzyme kinetics; recombinant β60 capsid; pH 7.0, added: substrate 2 fixed, 1 varied): 0.02 ± 0.00167 s⁻¹
Nc1n[nH]c2c1c(Nc1ccc(F)cc1)nc1ccccc12  inhibition (intestinal beta-glucuronidase; BALB/cJ mouse; oral, dose not given, 5 consecutive days): 75%
O=c1[nH]c(SC[C@H](O)[C@H](O)[C@H](O)CO)c([N+](=O)[O-])c(=O)[nH]1  Ks (Bacillus subtilis lumazine synthase; recombinant β60 capsid; pH 7.0, Tris·HCl buffer, added: 2 constant, 1 varied): 21 ± 3 µM
CC(C)(Oc1ccc(CCOc2ccc(/N=N/c3ccccc3)cc2)cc1)C(=O)O  EC50 (PPARγ; agonist): 1400 nM
CC(C)C(=O)Nc1c(NC[C@H](O)[C@H](O)[C@H](O)CO)[nH]c(=O)[nH]c1=O  kcat (Bacillus subtilis lumazine synthase; enzyme kinetics; recombinant β60 capsid; pH 7.0, added: substrate 2 fixed, 1 varied): 0.00667 ± 0.000167 s⁻¹
CN(C(=O)c1ccccc1)c1ccc(C(O)(C(F)(F)F)C(F)(F)F)cc1  EC50 (LXRα; agonist): 400 nM
CCOC(=O)N1CCC(c2cc(O)n3nc(C)c(-c4ccc(C(F)(F)F)cc4)c3n2)CC1  EC50 (TRPC3; ion channel activity, agonist): ~19 nM and 19 nM
COC(=O)[C@H](CC(C)C)NC(=O)[C@@H]1CCCN1C(=O)[C@@H](NC(=O)[C@H](CCC(=O)C=[N+]=[N-])NC(=O)OCc1ccccc1)C(C)C  inhibition (transglutaminase 2; TG activity; Q7 striatal cells; 50 µM): 75%
CCCC/C(=C(\c1ccccc1)c1ccc(S(C)(=O)=O)cc1)c1ccccc1  selectivity ratio (cyclooxygenase-2; reference: COX-1 IC50 over COX-2 IC50): > 7140
CCOC(=O)C(=O)Nc1c(NC[C@H](O)[C@H](O)[C@H](O)CO)[nH]c(=O)[nH]c1=O  kcat (Bacillus subtilis lumazine synthase; enzyme kinetics; recombinant β60 capsid; pH 7.0, added: substrate 2 fixed, 1 varied): 0.0417 ± 0.00167 s⁻¹
CN1CCN(C(=O)C(C)(C)c2ccc(C(=O)Nc3cn4cc(-c5ccncc5)ccc4n3)cc2)CC1  activity class (CLK; NanoBRET; concentration not given): active

Repeated from above:
Nc1ncnc(NCC2CCN(C(=O)C(O)CO)CC2)c1-c1ccc(Oc2ccccc2)cc1 (stereo not shown)  activity (BTK; concentration not given): inactive
CC(C)[C@H](NC(=O)[C@@H]1CCCN1C(=O)[C@H](C)NC(=O)[C@H](CO)NC(=O)[C@H](C)NC(=O)[C@H](CC(N)=O)NC(=O)[C@H](CCC(=O)O)NC(=O)[C@@H](NC(=O)[C@H](CC(=O)O)NC(=O)[C@H](CCCCN)NC(=O)[C@H](C)NC(=O)[C@H](CCC(N)=O)NC(=O)[C@H](Cc1ccccc1)NC(=O)[C@H](C)NC(=O)[C@H](Cc1c[nH]c2ccccc12)NC(=O)[C@@H](NC(=O)[C@@H]1CCCN1C(=O)[C@@H](NC(=O)CN)C(C)C)C(C)C)C(C)C)C(=O)O  turnover number (PCY1 peptide cyclase, Saponaria vaccaria; macrocyclization, substrate): ~1 h⁻¹
CSc1nn(CC(=O)Nc2ccc(F)c(F)c2)c(N)c1-c1nc(-c2ccc3c(c2)OCO3)no1  activity (FANCM/RMI; PubChem screen; concentration not given): inactive
O=c1[nH]c(NC[C@H](O)[C@H](O)[C@H](O)CO)c([N+](=O)[O-])c(=O)[nH]1  kcat (Bacillus subtilis lumazine synthase; enzyme kinetics; recombinant β60 capsid; pH 7.0, added: substrate 2 fixed, 1 varied): 0.02 ± 0.00167 s⁻¹
